Published values pooled from the literature.
Compare with care: the assays were run in different laboratories.

SMILES	assay	test system	conditions	how to read	quantity	value
CC(C)[C@@H]1NC(=O)CNC(=O)[C@H](CC(N)=O)NC(=O)[C@H](CCCNC(=N)N)NC(=O)[C@H](Cc2ccc(O)cc2)NC(=O)[C@H](C(C)C)NC(=O)[C@@H](NC(=O)[C@@H](NC(=O)[C@H](CC(N)=O)NC(=O)[C@H](Cc2c[nH]c3ccccc23)NC(=O)[C@H](C)NC(=O)[C@H](Cc2ccccc2)NC(=O)CN)C(C)C)CSSC[C@@H](C(=O)N[C@@H](Cc2cnc[nH]2)C(=O)N[C@@H](CCCNC(=N)N)C(=O)N[C@@H](CCCNC(=N)N)C(=O)N[C@@H](C)C(=O)N[C@@H](CC(N)=O)C(N)=O)NC(=O)[C@H](C(C)C)NC(=O)[C@H](CCCNC(=N)N)NC1=O		ICR mouse	ip, 5 mg/kg	direction not given	tremor score	0
Cc1cc(C)c(CNC(=O)c2cc(Cl)c3c(c2C)O[C@@](C)([C@H]2CC[C@H](N(C)C)CC2)O3)c(=O)[nH]1		human, relapsed/refractory NHL	concentration not given, treatment-related TEAEs, grade 5		Hyponatraemia incidence	0%
C[C@]1(O)C[C@@](N)(c2ccc(-c3nc4n(c3-c3ccccc3)COc3ccncc3-4)cc2)C1		human, advanced or metastatic solid tumours	once daily, dose escalation total		patients with grade ≥3 Rash TEAE	22.2%
CCCCCOc1ccc(-c2ccc(-c3ccc(C(=O)N[C@H]4C[C@@H](O)[C@@H](OCC[N+](C)(C)C)NC(=O)[C@@H]5[C@@H](O)[C@@H](C)CN5C(=O)[C@H]([C@@H](C)O)NC(=O)[C@H]([C@H](O)[C@@H](O)c5ccc(O)cc5)NC(=O)[C@@H]5C[C@@H](O)CN5C(=O)[C@H]([C@@H](C)O)NC4=O)cc3)cc2)cc1		adult patients not in ICU, plasma	intravenous, 400 mg loading, after first dose, geometric mean		AUC(0-168 h)	772 µg·h/mL
CO[C@H]1C[C@@H]2CC[C@@H](C)[C@@](O)(O2)C(=O)C(=O)N2CCCC[C@H]2C(=O)O[C@H]([C@H](C)C[C@@H]2CC[C@@H](OC(=O)NCCOCCOCCOCCOCCOCCOCCOCCOCCC(=O)N3CCc4cc(Cn5nc(-c6ccc7oc(N)nc7c6)c6c(N)ncnc65)ccc4C3)[C@H](OC)C2)C[C@@H](O)[C@H](C)/C=C(\C)[C@@H](O)[C@@H](OC)C(=O)[C@H](C)C[C@H](C)/C=C/C=C/C=C/1C		patients with advanced solid tumours	intravenous, 16 mg weekly, grade 3 or higher		mucositis incidence	25%
CNC(=O)c1cc(Oc2ccc(NC(=O)Nc3cc(C(C)(C)C)nn3-c3ccc4ncccc4c3)c(F)c2)ccn1	vomiting, NCI CTC v3.0	human patients	oral, 150 mg twice daily, tablet, dose at onset		related SAE	3%
CC[C@H](C)[C@@H]1NC(=O)[C@@H]2CSSC[C@H](NC(=O)[C@H](CCCNC(=N)N)NC(=O)[C@@H]3CSSC[C@H](NC1=O)C(=O)N[C@@H]([C@@H](C)O)C(=O)N[C@@H](CCCNC(=N)N)C(=O)NCC(=O)N[C@@H](Cc1ccccc1)C(=O)N3)C(=O)N[C@@H](CC(C)C)C(=O)N[C@H]1CSSC[C@H](NC(=O)[C@H](C(C)C)NC(=O)CNC(=O)[C@H](CCCNC(=N)N)NC(=O)[C@H](CCCNC(=N)N)NC1=O)C(=O)N[C@@H](CCCNC(=N)N)C(=O)N2		Sprague-Dawley rats, female, liver	10 mg/kg	direction not given	hepatocyte necrosis score	1 to 2
Cn1ncc(-c2nc(N[C@H]3CC[C@H](N)CC3)ncc2Cl)c1CC1CC1	phase I dose escalation	human patients	dose not given, treatment-related grade 3 or higher		related adverse event incidence	19.4%
CCN1CCN(Cc2ccc(Nc3ncc(F)c(-c4cc(F)c5nc6n(c5c4)[C@H](C)CCC6)n3)nc2)CC1	Phase Ia dose escalation	patients with advanced solid tumours	dose not given, monotherapy, any grade TEAE		blood creatinine increased incidence	75%
COc1cc2c(Oc3ccc4[nH]c(C)cc4c3F)ccnc2cc1OCC1(N)CC1		paediatric recurrent refractory sarcoma	8 mg/kg		grade 3 Proteinuria	0%
C[C@@H](NC(=O)N1C(=O)[C@H](Cc2ccnc(N)c2)[C@H]1C(=O)O)C1CCCCC1		healthy adult Chinese volunteers	continuous intravenous infusion, 2.25 mg/kg/h, 5-day infusion, CTCAE 5.0 grading		incidence of abnormal liver function	25%
CC(C)(O)c1cc(Nc2cc(Oc3cn(C4CC4)nc3C3CCOCC3)ccn2)ccn1		grade 4 glioma expansion cohort	oral, 50 mg twice daily		AST increased, any grade	5%
O=C(Nc1ccccc1)C1CCN(C(=O)Oc2cccnc2)CC1	psychotropic effects VAS	healthy women	60 mg	baseline: pre-dose baseline, direction not given	change in internal perception score	0
C[C@]1(CO)Cc2ncn(-c3ccc(C#N)c(Cl)c3)c2C(=O)O1		human	2 mg single dose		subjects with drug-related headache	0%

For quick reference, copied from above:
SMILES	assay	test system	conditions	how to read	quantity	value
CNC(=O)c1cc(Oc2ccc(NC(=O)Nc3cc(C(C)(C)C)nn3-c3ccc4ncccc4c3)c(F)c2)ccn1	vomiting, NCI CTC v3.0	human patients	oral, 150 mg twice daily, tablet, dose at onset		related SAE	3%
CC[C@H](C)[C@@H]1NC(=O)[C@@H]2CSSC[C@H](NC(=O)[C@H](CCCNC(=N)N)NC(=O)[C@@H]3CSSC[C@H](NC1=O)C(=O)N[C@@H]([C@@H](C)O)C(=O)N[C@@H](CCCNC(=N)N)C(=O)NCC(=O)N[C@@H](Cc1ccccc1)C(=O)N3)C(=O)N[C@@H](CC(C)C)C(=O)N[C@H]1CSSC[C@H](NC(=O)[C@H](C(C)C)NC(=O)CNC(=O)[C@H](CCCNC(=N)N)NC(=O)[C@H](CCCNC(=N)N)NC1=O)C(=O)N[C@@H](CCCNC(=N)N)C(=O)N2		Sprague-Dawley rats, female, liver	10 mg/kg	direction not given	hepatocyte necrosis score	1 to 2
